{"data": "Measured values collected from several papers", "cell line": "HCT-116", "note": "Compare with care: the assays were run in different laboratories."}
{"SMILES": "COc1cc(CCC[P+](c2ccccc2)(c2ccccc2)c2ccccc2)c(OC)c2c1OCO2.[I-]", "assay": "SRB", "endpoint": "GI50", "result": "-6 log M"}
{"SMILES": "CC(C)N1CCC(NC2CCN(c3cccc(-c4cc5cc(F)ccc5[nH]4)c3)CC2)CC1", "endpoint": "GI50", "result": "1.28 µM"}
{"SMILES": "CCOP1(=O)CC=Cc2cc(N)ccc2O1 (centres unmarked)", "assay": "cell proliferation, MTT", "setting": "100 µM, 72 h, normoxia", "endpoint": "maximal inhibition", "result": "10 to 15%"}
{"SMILES": "O=C1CCP(=S)(c2ccccc2)CC1", "assay": "trypan blue", "setting": "IC50, 72 h", "endpoint": "viability reduction", "result": "18%"}
{"SMILES": "COc1c(CCC[P+](c2ccccc2)(c2ccccc2)c2ccccc2)cc2c(c1OC)OCO2.[I-]", "assay": "SRB", "endpoint": "LC50", "result": "> -4 log M"}
{"SMILES": "COc1ccc(C(=O)Nc2ccc3c(c2)C=CCP(=O)(O)O3)cc1", "assay": "cell proliferation, MTT", "setting": "100 µM, 72 h, normoxia", "endpoint": "maximal inhibition", "result": "~30%"}
{"SMILES": "Nc1ncc(-c2nc(N3CCOCC3)nc(N3CCOCC3)n2)c(C(F)F)n1", "setting": "72 h", "endpoint": "GI50", "result": "0.114 µM"}
{"SMILES": "Nc1nc2nc[nH]c2c(=S)[nH]1", "assay": "clonogenic", "setting": "1.25 µM, 10 days", "endpoint": "surviving fraction", "result": 0.986}
{"SMILES": "Cn1cncc1C1=CN(c2ncnc3[nH]cnc23)CCS1", "setting": "colon cancer", "endpoint": "CC50", "result": "> 200 µM"}
{"SMILES": "COC1=C(N)C(=O)c2nc(-c3nc(C(=O)O)c(C)c(-c4ccc(OC)c(OC)c4O)c3N)ccc2C1=O", "assay": "protein SUMOylation, western blot, item: SUMOylated proteins", "endpoint": "EC50", "result": "~1 µM"}
{"SMILES": "S=P1(C2CCCCC2)CCCCC1", "assay": "MTT", "setting": "72 h", "how to read": "relative to: IC50 HaCaT over IC50 HCT-116", "endpoint": "selectivity index", "result": 1}
{"note": "Repeated from above:"}
{"SMILES": "COc1ccc(C(=O)Nc2ccc3c(c2)C=CCP(=O)(O)O3)cc1", "assay": "cell proliferation, MTT", "setting": "100 µM, 72 h, normoxia", "endpoint": "maximal inhibition", "result": "~30%"}
{"SMILES": "Nc1ncc(-c2nc(N3CCOCC3)nc(N3CCOCC3)n2)c(C(F)F)n1", "setting": "72 h", "endpoint": "GI50", "result": "0.114 µM"}
